Results from different studies.
Each numbered part is a random draw from the data of one study; scales do not carry over between parts.

Series 1
Target: Histone acetyltransferase KAT6A, winged helix 2, GST fusion (KAT6A, Homo sapiens, UniProt Q92794, residues 85-181)
Technique: protein binding microarray
Form: double-stranded DNA, one strand shown
Medium: in vitro
Concentration: not given
Notes: 8-mer, flanks averaged, mean of 2 arrays, mostly near background
Relative to: not given
Direction: higher = stronger binding
Measurement: E-score
Residues (chain): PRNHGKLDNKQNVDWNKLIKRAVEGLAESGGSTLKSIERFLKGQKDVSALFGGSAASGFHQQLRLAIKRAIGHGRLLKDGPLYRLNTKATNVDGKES
AGCCTGGA: 0.0258
CATCGCAG: 0.0621
ATAACTAA: 0.0244
CACATTGA: -0.152
CTCAGGAG: 0.0166
ATTACTCG: -0.0173
AACCCTGA: -0.0652
ACAATGCG: -0.00445
GGTTGCGA: 0.267
CCATGGGC: -0.0561
CCCATATC: -0.0321
AATGCCGT: 0.072
AATTTATG: 0.0445
ACACCGTA: -0.25
CGTTGAAC: -0.0716
ATGGATGG: -0.113
ACGTTGCG: -0.181
CCCGAGAG: 0.107
GGAAACAA: -0.00885
TCAGCTCA: 0.0563
CCCACGAG: 0.124
CTTTTACC: 0.106
ACGCCGCA: 0.206
AACGATGG: -0.18
GTCATTAA: 0.0157

Series 2
Target: Centromere-binding protein 1, full length, N-terminal tag (CBF1, Saccharomyces cerevisiae, UniProt P17106, residues 1-351)
Chain of UniProt P17106 (whole entry, looked up): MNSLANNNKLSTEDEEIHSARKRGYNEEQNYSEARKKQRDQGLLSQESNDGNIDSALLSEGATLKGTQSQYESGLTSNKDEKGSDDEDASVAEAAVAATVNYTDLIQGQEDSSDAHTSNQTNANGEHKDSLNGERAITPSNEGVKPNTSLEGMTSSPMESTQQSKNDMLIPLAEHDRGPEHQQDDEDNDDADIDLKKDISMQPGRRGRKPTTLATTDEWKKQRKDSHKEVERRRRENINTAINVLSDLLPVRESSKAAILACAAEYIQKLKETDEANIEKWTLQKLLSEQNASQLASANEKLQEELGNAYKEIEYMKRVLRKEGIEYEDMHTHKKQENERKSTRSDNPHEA
Technique: protein-binding microarray
Form: double-stranded DNA, one strand shown
Medium: in vitro
Concentration: 0.8 µM
Notes: whole 60-bp probe, no competitor
Direction: higher = stronger binding
Measurement: fluorescence intensity
Shared flanks, not repeated: … GTCTTGATTCGCTTGACGCTGCTG
TGTACGAAGCTATATCACGCAATTATAGTAGTTAGG: 571 a.u.
CTATCTTCAATATCAGGTGAAATGTGTCTTGCCTTC: 669 a.u.
CTATAAAGACAAAGGCATGTGAGAAAAGTAAGTTTC: 593 a.u.
CTACTGGCCTCTGATCACGTTACTTTATTACCCTTC: 4570 a.u.
CTAGAGATAGATACATGCGTGGGTCAATTGCCTTTC: 492 a.u.
CTAATTTCTTCCAATTGAGTCACGTCGCGTCCTTTC: 1010 a.u.
CTACGTATCCTTGTACGCGTGATTTATTTATATTTC: 1600 a.u.
CTATATTTTGCGTATCACACCACATCGTCCCTCTTC: 676 a.u.
GAAAGTAATAAGCTTGACGTGATGTACTTAGTCTAG: 561 a.u.
CTACTCAGAGCGCATCACGATCGGGAGTGTAAATTC: 498 a.u.
GAAAAATCGGCGGTGATGGTGATGATGAATCATTAG: 488 a.u.
TGTACGAAGCTATATAACGTGAGTATAGTAGTTAGG: 602 a.u.
GAACTAAACCTCTCACACGTTAATGTCGTGAAATAG: 553 a.u.
TGTACGAAGCTATTTCATGCACGTATAGTAGTTAGG: 534 a.u.
TGTACGAAGCTATGTTGCATCATTATAGTAGTTAGG: 525 a.u.
GAATCACAGGCATTCCATGTGATAATGAAATTCTAG: 1310 a.u.
TGTACGAAGCTATTGCACGACAGTATAGTAGTTAGG: 544 a.u.
GAATATTATGGTGAGCAGGTGAAATCCTAGCTGTAG: 542 a.u.
CTAGCTTCTTTATGCACCGTGGAGTAATTACCGTTC: 560 a.u.
TGTACGAAGCTATAATCCGTGCATATAGTAGTTAGG: 557 a.u.
GAATGTGCAGCACTGCATGTGCGAATGGTCCATTAG: 540 a.u.
GAAGTTTTGGGTCATCATGCACTGCTGTTGGTATAG: 604 a.u.

Series 3
Target: Sal-like protein 4, full length isoform B (SALL4, Homo sapiens, UniProt Q9UJQ4-2, residues 1-616)
Technique: universal PBM
Form: double-stranded DNA, one strand shown
Medium: in vitro
Concentration: not given
Notes: 8-mer, flanks averaged, mean of replicates
Direction: higher = stronger binding
Measurement: E-score
CACACGGC: -0.233
GGGGCTCA: -0.279
ACTGCAGG: -0.19
GCCCTCCC: -0.338
CGTCAAGC: -0.231
TACAGCAA: 0.0591
ACCAGAAT: 0.0704
CCTGGCTC: -0.271
GACTGCAC: -0.15
GTGTGGGA: -0.0923
GCCGCCCA: -0.448
CTCCACGA: -0.148
ACAGCCTG: -0.081
CAGCTAAC: -0.117
CGATCTAA: 0.0579
AGAAATGG: 0.0636
CACCAATA: 0.216
TAGGACCA: -0.0717
AATGTGCT: 0.167
ACTCCGTG: -0.113
ATTCCAGA: 0.0887
GGCTGACC: -0.216
ACTGACCG: -0.254
TGCCTGAA: -0.0126
AATCCGAT: 0.157

Series 4
Target: Fragile X messenger ribonucleoprotein 1, C-terminal low-complexity region (Fmr1, Mus musculus, UniProt P35922)
Technique: RNA Bind-n-Seq
Form: RNA
Medium: in vitro
Concentration: 200 nM
Notes: whole 134-nt RNA, ends assumed
Together with: 150 mM LiCl
Relative to: input library
Direction: higher = stronger binding
Measurement: log2 enrichment
All molecules: 7-deaza-guanosine replaces G
Shared flanks, not repeated: GGGAGUUCUACAGUCCGACGAUC … UGGAAUUCUCGGGUGUCAAGG
AGUCCUGUGCUACACAUCGUAUGUACCGAAUCGGUUUUUUGGUUUUUUGGUUUUUUGGAAAGUAUUAUGUUACGCCGUUCGGAUCUGCAC: -1.99
CCUCAAGUCCUGUGCUACACAUCGUAUGUACCGAAUCGGAGGAAAAAGGAGGAAAGUAUUAUGUUACGCCGUUCGGAUCUGCACUUCCAG: -0.453
CUCAAGUCCUGUGCUACACAUCGUAUGUACCGAAUCGGGGCGGGGCGGGGCGGGAAAGUAUUAUGUUACGCCGUUCGGAUCUGCACUUCC: -0.663
AAGUCCUGUGCUACACAUCGUAUGUACCGAAUCGGGUUUUGGGUUUUGGGUUUUGGGAAAGUAUUAUGUUACGCCGUUCGGAUCUGCACU: -1.02
UCCUGUGCUACACAUCGUAUGUACCGAAUCGGGGAAAAAAGGAAAAAAGGGAAAAAAGGGAAAGUAUUAUGUUACGCCGUUCGGAUCUGC: 0.12
CACAGACAACACGCACCCAAACAGACACAGAGGGAAGGGGUUGGGAUGGGGACAGGGUGCACAGCAGGGCGGGGUAGGACCCCAGCCCCU: 0.29
CAAGUCCUGUGCUACACAUCGUAUGUACCGAAUCGGGAAAAAGGGUUUGGGAGGGAAAGUAUUAUGUUACGCCGUUCGGAUCUGCACUUC: -1.13
UGGGAGGUGGAUUUUGUUUAUAUUUUUAGCUCAUUUCCAGGGGUGGGAAUUUUUUUUUAAUAUGUGUCAUGAAUAAAGUUGUUUUUGAAA: -0.113
UAACUUAAGAGGAGGAUCUGAUGGAUAUGGCAGUGGACGUGGAUUUGGGGAUGGCUAUAAUGGGUAUGGAGGAGGACCUGGAGGUGGCAA: 0.658
CUCAAGUCCUGUGCUACACAUCGUAUGUACCGAAUCGGGAAAGGGAGGGAGGGAAAGUAUUAUGUUACGCCGUUCGGAUCUGCACUUCCA: -0.67
UCCUCAAGUCCUGUGCUACACAUCGUAUGUACCGAAUCGGGGUGGUGGUGGGAAAGUAUUAUGUUACGCCGUUCGGAUCUGCACUUCCAG: -0.0734

Series 5
Target: Interferon regulatory factor 5, full length, phosphomimetic (IRF5, Homo sapiens, UniProt Q13568-2, residues 1-514, K96S/S451D/S453D/S456D/S462D)
Technique: protein-binding microarray
Form: double-stranded DNA, one strand shown
Medium: in vitro
Concentration: 250 nM
Notes: 60-bp whole probe
Together with: salmon DNA 0.4 mg/ml
Relative to: random background probes
Direction: higher = stronger binding
Measurement: log fluorescence
Shared flanks, not repeated: GCCTAGCAC … GTCTTGATTCGCTTGACGCTGCTG
TCAGAACTGAGTTTCGATTAGTGCTAG: 9.61 z-score
TTAGATTCGAGTTTCGATTAGTGCTAG: 9.08 z-score
GACGGTTTCCTTTCCCCGACGTGCTAG: 1.44 z-score
TTAGATCTCAGTTTCGACTAGTGCTAG: 7.37 z-score
TCAGCTTGGTGTCTCTGACTGTGCTAG: -0.465 z-score
TTTAGCAGACTGAGAGGAACGTGCTAG: -0.277 z-score
GACGGACTGCTTCTCCTAACGTGCTAG: -0.75 z-score
TTAGATATCGCGACTGGATTAGTGCTA: 0.447 z-score
TTAGATATCGGGACTGGGTTAGTGCTA: 0.945 z-score
GACGATATCCTTATCCTGACGTGCTAG: 0.114 z-score
GACGATTTCAGTTCTGAGACGTGCTAG: 1.14 z-score
GACGATCACAGTTTCGAGACGTGCTAG: 4.16 z-score
CTCCCTTTCAGTTTTCCTCTGTGCTAG: 3.16 z-score
CAGCATCTGCAACATCTACAAGTGCTA: -0.162 z-score
GACGTACTGAGTTTCGAGACGTGCTAG: 3.95 z-score
GACGATATCAGACTGGTGACGTGCTAG: 0.396 z-score

For quick reference, copied from above (series 2):
CTACTCAGAGCGCATCACGATCGGGAGTGTAAATTC: 498 a.u.
GAAAAATCGGCGGTGATGGTGATGATGAATCATTAG: 488 a.u.
TGTACGAAGCTATATAACGTGAGTATAGTAGTTAGG: 602 a.u.
GAACTAAACCTCTCACACGTTAATGTCGTGAAATAG: 553 a.u.
TGTACGAAGCTATTTCATGCACGTATAGTAGTTAGG: 534 a.u.
TGTACGAAGCTATGTTGCATCATTATAGTAGTTAGG: 525 a.u.
GAATCACAGGCATTCCATGTGATAATGAAATTCTAG: 1310 a.u.
TGTACGAAGCTATTGCACGACAGTATAGTAGTTAGG: 544 a.u.
GAATATTATGGTGAGCAGGTGAAATCCTAGCTGTAG: 542 a.u.
CTAGCTTCTTTATGCACCGTGGAGTAATTACCGTTC: 560 a.u.
TGTACGAAGCTATAATCCGTGCATATAGTAGTTAGG: 557 a.u.
GAATGTGCAGCACTGCATGTGCGAATGGTCCATTAG: 540 a.u.
GAAGTTTTGGGTCATCATGCACTGCTGTTGGTATAG: 604 a.u.
